Measured values collected from several papers.
Numbered parts are unrelated; each lists some results of a single study. ± marks the error that the study gave. Values after ≈ are worked out from the molar mass of the structure shown.
Chain of UniProt O43781 (whole entry, looked up): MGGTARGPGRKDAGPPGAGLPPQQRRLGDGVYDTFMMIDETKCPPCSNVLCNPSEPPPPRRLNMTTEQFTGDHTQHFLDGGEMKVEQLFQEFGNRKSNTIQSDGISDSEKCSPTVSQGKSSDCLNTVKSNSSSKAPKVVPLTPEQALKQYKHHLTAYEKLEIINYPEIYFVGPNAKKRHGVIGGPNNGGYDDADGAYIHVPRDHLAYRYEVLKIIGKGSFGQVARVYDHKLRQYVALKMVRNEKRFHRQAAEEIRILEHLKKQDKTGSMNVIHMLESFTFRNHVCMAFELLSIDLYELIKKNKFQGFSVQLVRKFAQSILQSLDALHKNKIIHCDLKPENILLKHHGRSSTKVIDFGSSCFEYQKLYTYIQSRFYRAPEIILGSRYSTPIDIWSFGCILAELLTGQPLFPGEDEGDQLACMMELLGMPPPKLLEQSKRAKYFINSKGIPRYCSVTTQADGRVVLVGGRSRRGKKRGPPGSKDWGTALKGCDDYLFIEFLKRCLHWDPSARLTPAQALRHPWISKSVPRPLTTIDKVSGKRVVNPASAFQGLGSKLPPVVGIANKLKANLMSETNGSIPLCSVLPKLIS

Sample 1 — organism: Escherichia coli; strain: ATCC 25955
| Structure (SMILES) | MIC [µg/mL] |
| --- | --- |
| Nc1nn2c(-c3ccc(Cl)cc3Cl)cc(-c3ccc(OCc4ccccc4)cc3)nc2c1N=Nc1ccc(F)cc1 | 7.81 (≈ 13.4 µM) |
| Cc1ccc(N=Nc2c(N)nn3c(-c4ccco4)cc(-c4ccc(OCc5ccccc5)cc4)nc23)cc1 | 15.6 (≈ 31.2 µM) |
| COc1ccc(N=Nc2c(N)nn3c(-c4ccc(Cl)cc4Cl)cc(-c4ccc(OCc5ccccc5)cc4)nc23)cc1 | 31.3 (≈ 52.6 µM) |
| Cc1ccc(N=Nc2c(N)nn3c(-c4ccc(Cl)cc4Cl)cc(-c4ccc(OCc5ccccc5)cc4)nc23)cc1 | 15.6 (≈ 26.9 µM) |

Other studies, line by line
| Compound | target or system | test | system | setting | endpoint | result |
| --- | --- | --- | --- | --- | --- | --- |
| COc1cc(-c2nc3ccccc3c(=O)n2Nc2ccc([N+](=O)[O-])cc2[N+](=O)[O-])ccc1OCc1cn(CC(=O)Nc2cccc(C)c2)nn1 | mushroom tyrosinase | inhibitor, colorimetric | – | with: L-DOPA substrate | IC50 | 29.5 ± 8.51 µM |
| CCOc1c([C@H](C)n2nc(C)c3c(N)ncnc32)cc(Cl)c(F)c1[C@@H]1CNC(=O)C1 | – | – | patients with B-cell malignancies, plasma | oral, 20 mg, day 15, all cohorts, monotherapy | half-life geometric mean | 552 min |
| COc1cc(-c2nc3ccccc3c(=O)n2Nc2ccc([N+](=O)[O-])cc2[N+](=O)[O-])ccc1OCc1cn(CC(=O)NCc2ccccc2)nn1 | mushroom tyrosinase | enzyme activity | – | 40 µM, with: L-DOPA | inhibition | 48.26 ± 0.31% |
| O=C(Nc1cc(-c2ccc(Cl)cc2)[nH]n1)C1CCCCC1 | DYRK3 (Homo sapiens, UniProt O43781) | enzyme activity, Dundee kinase panel | – | 10 µM | remaining activity | 87% |

Excerpt of the above (other studies, line by line):
| Compound | target or system | test | system | setting | endpoint | result |
| --- | --- | --- | --- | --- | --- | --- |
| O=C(Nc1cc(-c2ccc(Cl)cc2)[nH]n1)C1CCCCC1 | DYRK3 (Homo sapiens, UniProt O43781) | enzyme activity, Dundee kinase panel | – | 10 µM | remaining activity | 87% |
